Published values from different studies.
“And” joins repeats or separate records; there may be more than shown. ± marks the error that the study gave.
Sequence of UniProt Q86Z02 (whole entry, looked up): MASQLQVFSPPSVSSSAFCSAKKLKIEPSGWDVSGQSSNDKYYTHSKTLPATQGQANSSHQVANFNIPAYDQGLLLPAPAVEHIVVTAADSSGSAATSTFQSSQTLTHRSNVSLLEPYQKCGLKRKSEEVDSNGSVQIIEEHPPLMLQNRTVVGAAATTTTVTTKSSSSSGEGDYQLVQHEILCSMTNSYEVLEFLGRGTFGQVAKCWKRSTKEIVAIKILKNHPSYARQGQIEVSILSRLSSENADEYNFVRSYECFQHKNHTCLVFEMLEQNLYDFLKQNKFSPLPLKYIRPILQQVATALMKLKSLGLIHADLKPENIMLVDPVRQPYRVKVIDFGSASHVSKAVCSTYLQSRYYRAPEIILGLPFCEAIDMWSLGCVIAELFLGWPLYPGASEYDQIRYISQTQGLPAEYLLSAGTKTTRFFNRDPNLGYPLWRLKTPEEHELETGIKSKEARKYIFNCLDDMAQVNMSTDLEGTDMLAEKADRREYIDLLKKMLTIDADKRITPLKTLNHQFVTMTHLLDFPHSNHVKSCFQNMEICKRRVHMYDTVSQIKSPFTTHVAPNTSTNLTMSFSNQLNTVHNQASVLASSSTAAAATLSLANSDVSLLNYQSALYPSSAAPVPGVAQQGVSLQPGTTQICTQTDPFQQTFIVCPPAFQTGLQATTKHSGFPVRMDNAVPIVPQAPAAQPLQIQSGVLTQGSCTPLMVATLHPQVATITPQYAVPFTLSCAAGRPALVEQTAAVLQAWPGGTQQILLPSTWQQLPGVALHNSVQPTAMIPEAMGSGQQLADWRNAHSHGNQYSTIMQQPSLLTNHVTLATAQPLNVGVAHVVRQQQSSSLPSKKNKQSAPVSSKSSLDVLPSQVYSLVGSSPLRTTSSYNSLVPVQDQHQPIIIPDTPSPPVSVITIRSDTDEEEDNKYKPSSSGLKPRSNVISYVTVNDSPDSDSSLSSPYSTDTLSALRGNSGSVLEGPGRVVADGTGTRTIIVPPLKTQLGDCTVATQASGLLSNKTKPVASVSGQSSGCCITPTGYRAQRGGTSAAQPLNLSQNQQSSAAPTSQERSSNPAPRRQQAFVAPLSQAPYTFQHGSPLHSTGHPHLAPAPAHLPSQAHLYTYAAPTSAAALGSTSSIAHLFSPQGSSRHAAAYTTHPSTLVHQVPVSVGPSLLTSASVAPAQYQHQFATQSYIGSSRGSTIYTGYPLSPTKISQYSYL

`CCN(CC)CC#CCNc1ccnc2cc(Cl)ccc12` gave an IC50 of 0.06 µM and 0.047 µM (Plasmodium falciparum; parasite growth, LDH; 3D7).
`O=C(c1ccc(Cl)cc1)N1CCN(c2ccc(F)cc2)CC1` has an IC50 of 27.4 ± 3.9 µM (Saccharomyces cerevisiae; cell growth; wild type).
The IC50 of `c1ccc2c(Cc3c(-c4c[nH]c5ccccc45)[nH]c4ccccc34)c[nH]c2c1` is reported as over 50 µM (Clostridium sporogenes; microbial growth, absorbance).
With `Oc1cccc2c1[nH]c1c(C3=CC4(O)CCC=CCCCCN5CCC3C3(CC6C=CCCCCN6C43)C5)nccc12` (single isomer, unassigned; (+)) the IC50 was 2.67 µg/mL (Cryptococcus neoformans; microbial growth; ATCC90113).
`O=C(c1ccccc1Br)N1CCN(c2ccc(F)cc2)CC1` gave an IC50 of over 20 µM (Saccharomyces cerevisiae; microbial growth).
For `CCOc1ccc(Nc2n[nH]c3nc(-c4ccccc4)nc(N)c23)cc1`, the IC50 was 75.1 µM (rhinovirus B5; viral cytopathic effect; HeLa).
`O=C(c1ccc(Br)cc1)N1CCN(c2ccc(F)cc2)CC1` has an IC50 of 6.2 ± 2.1 µM (Saccharomyces cerevisiae; cell growth; wild type).
For `O=C(CCC(=O)Nc1ccc(Cl)cc1Cl)N/N=C/c1ccc([N+](=O)[O-])o1`, the translation activity was 112% (Trypanosoma cruzi; reporter mRNA translation, inhibitor, item: Renilla luciferase mRNA; cell-free extract; concentration not given, test 1; baseline: positive over negative control).
With `Nc1nc(-c2ccccc2)nc2[nH]nc(Nc3ccc(OC(F)(F)F)cc3)c12` the IC50 was 0.14 µM (rhinovirus B5; viral cytopathic effect; HeLa).
`C=CC(=O)Nc1cccc(Cn2ncc3cnc(Nc4cnn(CCOC)c4)nc32)c1` has a binding of 70% (human TRKC; KINOMEscan; 100 nM; baseline: control).
For `O=C(c1ccc(Cl)c([N+](=O)[O-])c1)N1CCN(c2ccc(F)cc2)CC1`, the IC50 was 3.53 ± 1.1 µM (Saccharomyces cerevisiae; cell growth; wild type).
`Nc1nc(-c2ccccc2)nc2[nH]nc(Nc3cccc(F)c3F)c12` has an IC50 of 0.01 µM (rhinovirus B5; viral cytopathic effect; HeLa).
The IC50 of `CCCCC(CC)COC(=O)CC(C(=O)OCC(CC)CCCC)S(=O)(=O)O.COC(=O)Nc1nc2cc(C(=O)c3ccccc3)ccc2[nH]1` (centres unmarked) is reported as 0.312 µM (Cryptococcus neoformans; EUCAST broth microdilution; clinical isolate; 72 h, 37 °C, RPMI with 2% glucose).
For `COc1ccccc1N1CCN(C(=O)c2ccc(Cl)c([N+](=O)[O-])c2)CC1`, the IC50 was 76.1 ± 5.3 µM (Saccharomyces cerevisiae; growth; sec14∆/SEC14 diploid).
`OC(Cn1cncn1)(Cn1cc(-[c-]2cccc2)nn1)c1ccc(F)cc1F.[Cl-].[Co+3].c1cc[cH-]c1` (racemic) gave an IC50 of 4.9 µM (Trypanosoma cruzi; parasite growth, resazurin; 24 h, trypomastigote).
The IC50 of `O=C(c1cccc(I)c1)N1CCN(c2ccc(F)cc2)CC1` is reported as over 20 µM (Saccharomyces cerevisiae; microbial growth).
For `CCCOC(=O)N1c2cc(CNC)ccc2[C@H](NC(=O)C(=O)Nc2ccc(Cl)c(F)c2)[C@H]1CNC(=N)N`, the IC50 was 0.596 µM (HIV-1; viral infection; TZM-bl, CRF02_AG 235-47 Env pseudovirus).
`CNS(=O)(=O)Nc1nccc(Cc2c(C)c3ccc(Oc4ncccc4F)cc3oc2=O)c1F` has an IC50 of over 1 µM (FTC-133; cell viability; 7 days).
The IC50 of `CS(=O)(=O)c1ccc(Nc2n[nH]c3nc(-c4ccccc4)nc(N)c23)cc1` is reported as 0.55 µM (rhinovirus B5; viral cytopathic effect; HeLa).
With `Cc1nn(-c2cccc(N)c2)c(=O)c2cnc(Nc3ccc(N4CCNCC4)cc3)nc12` the IC50 was over 10 µM (Homeodomain-interacting protein kinase 1 (HIPK1, Homo sapiens, UniProt Q86Z02); enzyme activity, inhibitor).
`CCOC(=O)c1ccc(OCCC2CCN(c3ccc(C)nn3)CC2)cc1` has an IC50 of 0.023 ± 0.022 µM (Rhinovirus A; viral replication, high-content imaging; RV-A16).
`O=C(N1CCc2ccccc21)n1ccnn1` gave an IC50 of 14 µM (Phelipanche ramosa; seed germination, inhibitor; together with: (±)-GR24 10 nM).
The translation activity of `CN(C)CCCCCN(C)Cc1cc2ccccc2o1.Cl` is reported as 100% and 123% (Trypanosoma cruzi; reporter mRNA translation, inhibitor, item: Renilla luciferase mRNA; cell-free extract; concentration not given, test 1; baseline: positive over negative control).
For `Nc1nc(-c2ccc(Cl)cc2)nc2[nH]nc(Nc3ccc(F)cc3)c12`, the IC50 was 0.52 µM (rhinovirus B5; viral cytopathic effect; HeLa).
Under “log2 fold change”, `COC1CN([C@H]2CC[C@H]([C@@]3(C)Oc4c(Cl)cc(C(=O)NCc5c(SC)cc(C)[nH]c5=O)c(C)c4O3)CC2)C1` is recorded as 2.68 (RNA-seq, item: RAP1GAP; human, whole blood; dose not given, 24 h; baseline: pretreatment baseline).
With `CCc1ccc(-c2nc(N)c3c(Nc4ccccc4)n[nH]c3n2)cc1` the IC50 was 0.57 µM (rhinovirus B5; viral cytopathic effect; HeLa).
`COc1ccc(N2CCN(C(=O)c3ccc(Cl)c([N+](=O)[O-])c3)CC2)cc1` gave an IC50 of 4.03 ± 1.9 µM (Saccharomyces cerevisiae; cell growth; wild type).
For `Cc1ncsc1-c1ccc(C(C)NC(=O)C2CC(O)CN2C(=O)C(NC(=O)CCCCCCCCCCN2CCCC(Nc3ncc(Cl)c(Nc4ccccc4S(=O)(=O)C(C)C)n3)C2)C(C)(C)C)cc1` (centres unmarked), “log2 fold change” read -1.14 (22Rv1; RNA-seq, item: MAP3K14 mRNA; concentration not given; baseline: DMSO).
`Cc1ccc(Nc2n[nH]c3nc(-c4ccc(F)cc4)nc(N)c23)cc1` has an IC50 of 1.83 µM (rhinovirus B5; viral cytopathic effect; HeLa).
`Nc1ncc(-c2cc(-c3cnn(CC(F)(F)F)c3)ncc2F)nc1C(=O)NC1CNCC(F)C1` (centres unmarked) has a remaining binding of 52% (DCAMKL3; KINOMEscan; 1 µM; baseline: DMSO control).
`CN1CCCNC(=O)c2cccc(c2)C(=O)NCCCN(C)CCCNc2cccc3c2C(=O)c2cccc(c2C3=O)NCCC1`: “log2 fold change” 0.49 (SAS; RNA-Seq, item: RBM6 mRNA; 1 µM, 6 h; baseline: untreated cells).
`O=Cc1c[nH]c2ccccc12` gave an IC50 of over 50 µM (Clostridium sporogenes; microbial growth, absorbance).
`Nc1nc(-c2ccccc2)nc2[nH]nc(Nc3cc(F)c(F)c(F)c3)c12` gave an IC50 of 0.26 µM (rhinovirus B5; viral cytopathic effect; HeLa).
The IC50 of `c1ccc2c(Cc3c[nH]c4ccccc34)c[nH]c2c1` is reported as over 50 µM (Clostridium sporogenes; microbial growth, absorbance).
`COC1C=COC2(C)Oc3c(C)c(O)c4c(c3C2=O)C2=NC3(CCN(CC(C)C)CC3)NC2=C(NC(=O)C(C)=CC=CC(C)C(O)C(C)C(O)C(C)C(OC(=O)Nc2cnccn2)C1C)C4=O` (centres unmarked) gave an IC50 of 0.015 µM (Mycobacteroides abscessus; bacterial growth; subsp. abscessus clinical isolate; slow grower).
`O=C(c1ccc(I)c([N+](=O)[O-])c1)N1CCN(c2ccccc2F)CC1` has an IC50 of under 20 µM (Saccharomyces cerevisiae; microbial growth).
With `O=C1Nc2ccccc2C1(c1c[nH]c2ccccc12)c1c[nH]c2ccccc12` the IC50 was over 50 µM (Clostridium sporogenes; microbial growth, absorbance).
The IC50 of `CNCc1ccc2c(c1)N(C(=O)OCc1c(F)c(F)c(F)c(F)c1F)[C@H](CNC(=N)N)[C@H]2NC(=O)C(=O)Nc1ccc(Cl)c(F)c1` is reported as 17.3 µM (Human immunodeficiency virus 1; viral infection, Env pseudovirus; TZM-bl, C2101.c01 CRF01_AE).

Repeated from above:
`OC(Cn1cncn1)(Cn1cc(-[c-]2cccc2)nn1)c1ccc(F)cc1F.[Cl-].[Co+3].c1cc[cH-]c1` (racemic) gave an IC50 of 4.9 µM (Trypanosoma cruzi; parasite growth, resazurin; 24 h, trypomastigote).
The IC50 of `O=C(c1cccc(I)c1)N1CCN(c2ccc(F)cc2)CC1` is reported as over 20 µM (Saccharomyces cerevisiae; microbial growth).
For `CCCOC(=O)N1c2cc(CNC)ccc2[C@H](NC(=O)C(=O)Nc2ccc(Cl)c(F)c2)[C@H]1CNC(=N)N`, the IC50 was 0.596 µM (HIV-1; viral infection; TZM-bl, CRF02_AG 235-47 Env pseudovirus).
`CNS(=O)(=O)Nc1nccc(Cc2c(C)c3ccc(Oc4ncccc4F)cc3oc2=O)c1F` has an IC50 of over 1 µM (FTC-133; cell viability; 7 days).
The IC50 of `CS(=O)(=O)c1ccc(Nc2n[nH]c3nc(-c4ccccc4)nc(N)c23)cc1` is reported as 0.55 µM (rhinovirus B5; viral cytopathic effect; HeLa).
